Measured values from different studies.
Lines come from different studies, so protocols differ.
Matrix: plasma

`Cc1ccc(OCC(=O)N(Cc2cccs2)c2ccn[nH]2)cc1` gave a half-life of 0.6 h (male Sprague-Dawley rat; oral, 10 mg/kg, single dose).
`O=C(Nc1nc2cc(C(F)(F)F)cc(NC3CC3)n2n1)c1cccnc1` gave a half-life of 5.2 h (male Sprague-Dawley rat; oral, 5 mg/kg).
`N=C(N)NCCC[C@H](NC(=O)[C@@H]1CCCN1C(=O)[C@H](Cc1ccccc1)NC(=O)[C@@H]1CCCN1C(=O)[C@H](Cc1c[nH]cn1)NC(=O)[C@@H](N)Cc1ccccc1)C(=O)O` has a half-life of 0.561 h (male Sprague-Dawley rat; oral, 50 mg/kg).
For `O=C(N[C@@H](CC1CCCCC1)C(=O)N[C@@H](C[C@H]1CCNC1=O)C(=O)C(=O)NC1CC1)OCc1cccc(Cl)c1`, the half-life was 10.7 h (female Sprague-Dawley rat; oral, 10 mg/kg).
With `COc1ccc2c(c1OCc1ccccc1)C[C@@H](C(=O)O)N(c1nc3ccc(C#N)cc3o1)C2` the half-life was 4.2 h (male Sprague-Dawley rat; intravenous, 1 mg/kg).
The half-life of `CC1(C)CC[C@]2(C(=O)O[C@@H]3O[C@H](CO[C@@H]4O[C@H](CO)[C@@H](O)[C@H](O)[C@H]4O)[C@@H](O)[C@H](O)[C@H]3O)CC[C@]3(C)C(=CC[C@@H]4[C@@]5(C)CC[C@H](O[C@@H]6OC[C@H](O)[C@H](O)[C@H]6O)[C@@](C)(CO)[C@@H]5CC[C@]43C)[C@@H]2C1` is reported as 31.6 h (Sprague-Dawley rat; oral, 150 mg/kg).
`CC12CC3CC(C)(C1)CC(NC(=O)Nc1ccc(C(=O)N4CCCC(C(N)=O)C4)cc1)(C3)C2` (centres unmarked) has a half-life of 2.93 h (Sprague-Dawley rat; oral, 10 mg/kg).
For `Cc1cc(/C=C/C#N)cc(C)c1Oc1nc(NC2CCN(Cc3ccc(P(C)(C)=O)cc3)CC2)nc2ccsc12`, the half-life was 0.6 h (male Sprague-Dawley rat; intravenous, 2 mg/kg).
With `C[Si]1(C[C@@H](CN)CC(=O)O)CCCC1` the half-life was 2.6 h (male Sprague-Dawley rat; oral, 30 mg/kg, single dose).
For `C[Si]1(C)CNC(=O)c2ccccc21`, the half-life was 2.8 h (rat; oral, 5 mg/kg, single dose).
With `Cc1cc(N)nc(CC2CNCC2OCCNCC(F)(F)c2cccc(F)c2)c1` (centres unmarked) the half-life was 7.5 h (rat; intravenous, 1 mg/kg).
With `Cc1cc(N2CCC(C#N)(C3(C)CC3)C2=O)cc(C(=O)NCc2cc(F)cc(-c3cnn(C)c3)c2)n1` (racemic) the half-life was 7.2 h (male Sprague-Dawley rat; oral, 3 mg/kg).
`CN1CCN(c2ccc(Nc3ncc(Cl)c(Nc4ccccc4P(C)(C)=O)n3)cc2Br)CC1` has a half-life of 15.3 h (male Sprague-Dawley rat; oral, 25 mg/kg).
`Cn1cc(-c2cc(N3CCCCS3(=O)=O)ccc2N[C@H]2CC[C@H](C)CC2)c2cc[nH]c2c1=O` (stereo in doubt) has a half-life of 1 h (Sprague-Dawley rat; oral, 3 mg/kg).
`CNC(=O)N[C@]1(C)CCC[C@@]2(C)C3CC[C@@]4(C)C[C@]3(CCC21)CC4=O` (single isomer, unassigned) has a half-life of 1.29 h (male Sprague-Dawley rat; oral, 2 mg/kg).
`CC(C)C[C@H](NC(=O)CNC(=O)[C@H](Cc1ccccc1)NC(=O)[C@H](CO)NC(=O)[C@H](CC(N)=O)NC(=O)[C@H](Cc1c[nH]c2ccccc12)NC(=O)[C@H](CC(N)=O)NC(=O)[C@@H](N)Cc1ccc(O)cc1)C(=O)N[C@@H](CCCNC(=N)N)C(=O)N[C@@H](Cc1ccccc1)C(N)=O` gave a half-life of < 0.0167 h (rat; intravenous, 1 mg/kg).
`Nc1nc(Cl)nc2c1ncn2Cc1cc(OCC(F)F)cc(OC(F)F)c1` gave a half-life of 5.37 h (Sprague-Dawley rat; intravenous, 2.5 mg/kg).
For `C[Si](C)(C)C[C@@H](CN)CC(=O)O`, the half-life was 2.52 h (male Sprague-Dawley rat; oral, 30 mg/kg, single dose).
`N#Cc1cnc2cc(OCC3CCNCC3)c(F)cc2c1Nc1cc(F)c(OCc2cccc(Cl)n2)cc1Cl` gave a half-life of 6.7 h (male Sprague-Dawley rat; oral, 30 mg/kg).
With `CSCOC1C(=O)C2(C)C(OCSC)CC3OCC3(OC(C)=O)C2C(OC(=O)c2ccccc2)C2(O)CC(OC(=O)C(O)C(C=C(C)C)NC(=O)OC(C)(C)C)C(C)=C1C2(C)C` (centres unmarked) the half-life was 7.9 h (female Sprague-Dawley rat; intravenous, 1 mg/kg).

Excerpt of the above:
`CNC(=O)N[C@]1(C)CCC[C@@]2(C)C3CC[C@@]4(C)C[C@]3(CCC21)CC4=O` (single isomer, unassigned) has a half-life of 1.29 h (male Sprague-Dawley rat; oral, 2 mg/kg).
`N=C(N)NCCC[C@H](NC(=O)[C@@H]1CCCN1C(=O)[C@H](Cc1ccccc1)NC(=O)[C@@H]1CCCN1C(=O)[C@H](Cc1c[nH]cn1)NC(=O)[C@@H](N)Cc1ccccc1)C(=O)O` has a half-life of 0.561 h (male Sprague-Dawley rat; oral, 50 mg/kg).
For `O=C(N[C@@H](CC1CCCCC1)C(=O)N[C@@H](C[C@H]1CCNC1=O)C(=O)C(=O)NC1CC1)OCc1cccc(Cl)c1`, the half-life was 10.7 h (female Sprague-Dawley rat; oral, 10 mg/kg).
